# Assay results collected from several papers.
# Protocols differ between the studies behind these lines. ± gives the spread as reported.
# ESR2: Estrogen receptor beta (ESR2, Homo sapiens, UniProt Q92731)
# Sequence of UniProt Q92731 (whole entry, looked up): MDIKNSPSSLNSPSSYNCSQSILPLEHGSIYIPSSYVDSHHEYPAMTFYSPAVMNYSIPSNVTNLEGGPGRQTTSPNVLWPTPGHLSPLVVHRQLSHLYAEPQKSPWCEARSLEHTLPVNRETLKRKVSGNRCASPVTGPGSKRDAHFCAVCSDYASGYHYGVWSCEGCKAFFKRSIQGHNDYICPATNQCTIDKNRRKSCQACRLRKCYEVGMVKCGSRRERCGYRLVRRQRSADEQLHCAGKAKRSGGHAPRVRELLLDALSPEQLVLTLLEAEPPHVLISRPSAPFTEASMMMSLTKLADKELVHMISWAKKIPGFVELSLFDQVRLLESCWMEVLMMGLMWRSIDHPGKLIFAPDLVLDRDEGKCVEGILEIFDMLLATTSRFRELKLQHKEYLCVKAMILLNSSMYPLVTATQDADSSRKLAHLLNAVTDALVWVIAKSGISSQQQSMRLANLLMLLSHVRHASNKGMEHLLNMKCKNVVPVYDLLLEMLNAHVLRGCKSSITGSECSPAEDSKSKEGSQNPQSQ
Structure (SMILES),tested on,test,system,setting,scale,endpoint,result
CN(CCC(=O)O)C(=O)c1ccc2c(c1)CC[C@@H]1[C@@H]2CC[C@]2(C)C(c3cncc(F)c3)=CC[C@@H]12,,,"premenopausal women, endometriosis pain, serum","60 mg twice daily, visit 4, median",reference: baseline,total bilirubin change,0.6 mg/dL
O=C(Nc1nc2cccc(-c3ccc(CN4CCS(=O)(=O)CC4)cc3)n2n1)C1CC1,,,rheumatoid arthritis patients,"oral, 30 mg once daily, 4 weeks, TEAE regardless of relatedness",,incidence of gastritis,5.9%
Cc1cccc(CNC(=O)c2cn(CCNC(=O)c3ccccc3S)c3cc4c(cc3c2=O)OC(F)(F)O4)n1,,,"Sprague-Dawley rat, male, whole blood","intravenous, 5 mg/kg of parent compound",,AUC(0-inf),3170 ± 350 ng·h/mL
COc1ccc(CCN(C)CCCC(C#N)(c2ccc(OC)c(OC)c2)C(C)C)cc1OC (stereo not shown),Nedd8-cullin1 interaction,"neddylation, AlphaScreen",,100 µM,,inhibition,-38.8%
OC[C@H]1OC(O)[C@H]([18F])[C@@H](O)[C@@H]1O (stereo partly shown),,PET,"mouse, MM.1S xenograft, tumour",60 min post-injection,,SUVmean,0.53 ± 0.02 g/mL
OC[C@H]1O[C@@H](c2ccc(Cl)c(Cc3ccc(O[C@H]4CCOC4)cc3)c2)[C@H](O)[C@@H](O)[C@@H]1O,,,"Japanese type 1 diabetes patients, blood","10 mg, day 28",reference: baseline,change in Sodium,1 mEq/L
C[C@@H](Oc1ccc(S(C)(=O)=O)cc1C(=O)N1C[C@@H]2C[C@]2(c2cc(C(F)(F)F)on2)C1)C(F)(F)F,,,"elderly humans, plasma","oral, 25 mg once daily, single dose, geometric mean",,half-life,57.3 h
CC(C)C[C@H](NC(=O)C[C@H](O)[C@H](CC(C)C)NC(=O)[C@H](Cc1c[nH]cn1)NC(=O)CNC(=O)[C@@H](NC(=O)[C@H](C)NC(=O)[C@H](Cc1c[nH]c2ccccc12)NC(=O)[C@H](CCC(N)=O)NC(=O)[C@@H](Cc1ccccc1)NC(=O)COCCOCCNC(=O)CCC(C(=O)O)N1CCN(CC(=O)O)CCN(CC(=O)O)CCN(CC(=O)O)CC1)C(C)C)C(N)=O (stereo partly shown) [lutetium-177 labelled],,,"BALB/c nu/nu mice, female, kidneys","50 pmol, 1 h, together with: PBS co-injection",,tissue uptake,5 ± 1 %ID/g
N#Cc1ccc2c(c1)[C@H]1CCCN(C(=O)c3ccc4[nH]cnc4c3)[C@H]1C2,,,human,"80 mg, end of trial",reference: baseline,ACTH level change,1 pmol/L
O=C(O)[C@H]1O[C@@H](Oc2cc3oc(-c4ccccc4)cc(=O)c3c(O)c2O)[C@H](O)[C@@H](O)[C@@H]1O,ESR2,"array formation, agonist",GFP-ERβ PRL-HeLa,1 h,,EC50,1350 nM
O=c1c2ccccc2oc2ccccc12,,,tricaprin-tricaprylin mixture,"60 °C, tricaprin fraction 0.77",,solubility,0.0693 mole fraction
CCn1cc(-c2cc(Cn3ccnc3)cc3c2CCN([C@H](c2cc(OC)ccn2)C2CC2)C3=O)c(C(F)(F)F)n1,COV504,"cell growth, inhibitor",,120 h,,EC50,12300 nM
C[C@@H]1O[C@@H](O[C@H]2[C@H](Oc3cc(O)c(C(=O)CCc4ccc(O)cc4)c(O)c3)O[C@H](CO)[C@@H](O)[C@@H]2O)[C@H](O)[C@H](O)[C@H]1O,ESR2,"array formation, agonist",GFP-ERβ PRL-HeLa,1 h,,EC50,2370 nM
CC1=C(Cn2ccnn2)C(=O)c2ccccc2C1=O,Schistosoma mansoni,,adult worms,"10 µM, 48 h",,killing,42.8%
NC(=O)c1cnc2[nH]ccc2c1N[C@@H]1[C@@H]2CC3C[C@H]1C[C@@](O)(C3)C2,,,"healthy human volunteers, plasma","oral, population PK model estimate",,intercompartmental clearance,9.19 L/h
C=CCN1CC(=O)N2[C@@H](Cc3ccc(O)cc3F)C(=O)N(Cc3cccc(N4CC(N5CCN(CC)CC5)C4)n3)C[C@@H]2N1C(=O)NCc1ccccc1,,,advanced solid tumour patients,"oral, 10 mg twice daily, grade ≥3, dose-escalation",,treatment-related nausea,0%
Cc1cc(-c2nccc3c2ccn3CC(=O)Nc2ccc(-c3cnccn3)cn2)ccn1,,,human,"20 mg once daily, multiple ascending dose",,medical device site dermatitis,22.2%
Cc1nc2cccc(OCC(C)(C)C(=O)NC(C)C)c2c(N)c1C(=O)O,,,Swiss albino CD-1 mouse,"oral, 500 mg/kg, 36 h",,mean body weight change,2.7 ± 0.5 g
C=C1C(=O)O[C@H]2[C@H]1CC/C(COC(=O)n1ccnc1)=C\CC[C@@]1(C)O[C@@H]21,,,"BALB/c mice male, blood","oral, 757 µmol/kg",,time to appearance in blood,≤ 15 min
Cc1cc(Nc2ccc(S(F)(F)(F)(F)F)cc2)n2nc(C(C)(F)F)nc2n1,Plasmodium vivax,12-lead Holter ECG,human malaria patients,"oral, 600 mg, QTc above 500 ms",,patients with QTcF above threshold,0%
CO[C@]1(C(=O)N[C@@H](C)c2ccc(-n3cc(F)cn3)nc2)CC[C@H](c2nc(C)cc(Nc3cc(C)[nH]n3)n2)CC1,,,"humans, urine","oral, dose not given",reference: dose,excreted radioactivity,6.06%
CCCCC[C@H]1CC[C@H](c2ccc(OCC)c(F)c2F)CC1,,,"rat, placenta","10 ng/mL in perfusate, low dose, mixture of 21 LCMs",,median placental accumulation,21.9 ng/g
CNC(=O)c1ccc(-c2cnc3ncc(Cc4ccc5ncccc5c4)n3n2)cc1F,,,Japanese patients,"oral, 400 mg, grade 3/4",,Neutrophil count decreased dose reduction/interruption,2%
O=C(O)CC[C@H](NC(=O)N[C@@H](CCCCNC(=O)[C@H](Cc1ccc2ccccc2c1)NC(=O)CCCCCNC(=O)CN1CCN(CC(=O)O)CCN(CC(=O)O)CCN(CC(=O)O)CC1)C(=O)O)C(=O)O [gallium-68 labelled],,PET/CT,"mouse, 22Rv1 xenograft, tumour","intravenous, 3.7 MBq, 2 h",,SUVmean,1.24 ± 0.06 SUV
CNC(=O)c1cc(Oc2ccc(NC(=O)Nc3cc(C(C)(C)C)nn3-c3ccc4ncccc4c3)c(F)c2)ccn1,,measured: worst grade 2,human,"oral, dose not given, cycles 1 and 2, High AUC(0-4 h) subgroup",,patients with musculoskeletal disorder AE,11%
COC[C@@H](c1ccc(C(F)(F)F)cc1)N1CCN(C2(C)CCN(C(=O)c3c(C)ncnc3C)CC2)C[C@@H]1C,,,human,"population PK model, together with: ritonavir",,intercompartmental clearance,29.5 L/h
CC/C=C\C/C=C\C/C=C\C/C=C\C/C=C\C/C=C\CCC(=O)O.Cc1cc(/C=C/C#N)cc(C)c1Nc1ccnc(Nc2ccc(C#N)cc2)n1,,,Capryol 90,,,kinetic solubility,~50 mg/mL
Cc1ccc(NC(=O)c2ccc(CN3CCN(C)CC3)cc2)cc1Nc1nccc(-c2cncc(-c3oncc3C)c2)n1,,,"C57BL/6 mice, male, brain","oral, 100 mg/kg/day, day 1",,t1/2,3.8 h
C/C(=N\c1ccc(O)cc1)c1cc2ccccc2n1C,,,rat plasma,"50 ng/mL, time not given, 3 freeze-thaw cycles",reference: nominal,remaining compound,112 ± 5.5%
COC(=O)C1=C(C)NC(C)=C(C(=O)OCC(C)C)C1c1ccccc1[N+](=O)[O-] (stereo not shown),Nedd8-cullin1 interaction,"neddylation, AlphaScreen",,100 µM,,inhibition,36%
Cn1cc(-c2ccc(-c3cncc(Cl)c3N3CCC4(CCNC4=O)CC3)cc2)cn1,COLO 205,"gene expression, microarray, measured: TUBB3 mRNA",,"concentration not given, 2 h",reference: untreated cells,log2 fold change,1.67
